Published values gathered from unrelated publications.
Each numbered part is a random draw from the data of one study; scales do not carry over between parts. Positions count from the first letter of the parent shown.
Sequence of UniProt Q96SW2 (whole entry, looked up): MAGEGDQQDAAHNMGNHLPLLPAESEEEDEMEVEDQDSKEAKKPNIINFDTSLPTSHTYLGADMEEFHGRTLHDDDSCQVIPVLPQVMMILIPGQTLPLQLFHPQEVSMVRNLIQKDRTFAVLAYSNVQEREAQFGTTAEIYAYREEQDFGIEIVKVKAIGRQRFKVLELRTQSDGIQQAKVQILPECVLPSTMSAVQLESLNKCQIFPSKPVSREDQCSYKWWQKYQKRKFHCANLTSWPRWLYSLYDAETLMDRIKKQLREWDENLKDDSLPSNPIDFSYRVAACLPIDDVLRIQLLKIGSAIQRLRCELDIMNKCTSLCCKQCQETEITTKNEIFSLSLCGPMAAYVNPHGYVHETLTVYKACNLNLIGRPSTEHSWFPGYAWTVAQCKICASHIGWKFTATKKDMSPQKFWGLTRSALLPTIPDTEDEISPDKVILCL
Sequence of UniProt Q9UKS7 (whole entry, looked up): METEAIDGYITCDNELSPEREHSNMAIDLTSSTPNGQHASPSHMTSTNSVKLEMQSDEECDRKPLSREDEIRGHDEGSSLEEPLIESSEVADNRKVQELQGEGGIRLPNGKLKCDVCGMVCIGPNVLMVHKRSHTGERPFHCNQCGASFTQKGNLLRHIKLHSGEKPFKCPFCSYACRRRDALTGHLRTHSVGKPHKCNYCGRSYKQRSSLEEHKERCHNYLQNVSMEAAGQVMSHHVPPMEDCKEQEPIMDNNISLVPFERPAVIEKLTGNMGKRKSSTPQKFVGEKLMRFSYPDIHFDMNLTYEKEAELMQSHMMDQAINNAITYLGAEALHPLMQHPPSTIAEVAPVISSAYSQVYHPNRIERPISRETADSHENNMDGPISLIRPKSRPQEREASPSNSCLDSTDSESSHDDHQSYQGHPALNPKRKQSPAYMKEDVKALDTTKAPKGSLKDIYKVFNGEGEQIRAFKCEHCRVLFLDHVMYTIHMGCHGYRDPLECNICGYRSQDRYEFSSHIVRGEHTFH

Sample 1
Target: tungstate, free oxyanion
Method: microfluidic competitive inhibition
Sample: in vitro, cell-free expressed
Tested at: not given
Setting: derived from inhibition constants, unchanged parent 2230 nM
Reading: lower = stronger binding
Measurement: oxyanion analog dissociation constant
Parent: PafA, mature enzyme, eGFP fusion (Elizabethkingia meningoseptica, UniProt Q9KJX5); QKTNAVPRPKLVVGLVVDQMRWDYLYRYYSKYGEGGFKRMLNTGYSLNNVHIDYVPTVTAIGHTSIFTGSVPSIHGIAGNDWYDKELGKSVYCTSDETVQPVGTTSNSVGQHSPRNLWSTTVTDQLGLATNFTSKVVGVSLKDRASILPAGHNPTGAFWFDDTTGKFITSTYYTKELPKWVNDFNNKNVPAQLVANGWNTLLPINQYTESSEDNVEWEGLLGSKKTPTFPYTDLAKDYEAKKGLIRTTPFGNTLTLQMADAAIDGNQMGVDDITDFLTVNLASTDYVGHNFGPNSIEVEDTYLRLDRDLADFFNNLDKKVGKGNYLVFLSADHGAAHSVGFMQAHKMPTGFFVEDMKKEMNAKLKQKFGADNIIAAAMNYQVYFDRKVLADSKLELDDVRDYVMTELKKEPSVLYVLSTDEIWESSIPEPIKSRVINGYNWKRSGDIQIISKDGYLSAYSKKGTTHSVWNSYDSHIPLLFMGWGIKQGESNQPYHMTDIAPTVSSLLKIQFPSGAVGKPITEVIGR
G488A: 2.14 µM
Y54V: 2.6 µM
G251V: 1.73 µM
Q267V: 2.4 µM
I422V: 2.21 µM
E406G: 2.3 µM
V71A: 1.9 µM
D453V: 1.3 µM

Sample 2
Target: CCNB1, cyclin fold, Cln2 fusion (human)
Method: yeast growth competition, sequencing
Sample: yeast
Setting: strong parent motif
Relative to: not given
Reading: higher = stronger binding
Measurement: normalised enrichment score
Parent: viral docking peptide; YKVKRRLVFGADD
K4Y: 2.21
V3T: 1.45
A11S: 4.03
L7I: 0.919
L7G: 0.287
G10S: 3.7
F9N: 0.396
L7W: 0.255

Mixed results
CNC(=O)Nc1ccc2c(c1)CC[C@]21OC(=O)N(CC(=O)N(Cc2ccc(F)cc2)[C@@H](C)C(F)(F)F)C1=O  inhibition (Sodium-dependent serotonin transporter (SLC6A4, Homo sapiens, UniProt P31645); ligand displacement; 10 µM): 95.6%
O=C1CCC(N2Cc3c(ccc4c3OCC43CCN(Cc4ccccc4)CC3)C2=O)C(=O)N1 (stereo not drawn)  protein remaining (CRBN/Zinc finger protein Helios (Homo sapiens, UniProt Q96SW2+Q9UKS7); degrader, HiBiT; HEK293; 0.1694 nM, 6 h): 108%

Repeated from above (sample 1):
G251V: 1.73 µM
